Measured values from different studies.
Numbered parts are unrelated; each lists some results of a single study.
UniProt Q9Y5S2, sequence (whole entry, looked up): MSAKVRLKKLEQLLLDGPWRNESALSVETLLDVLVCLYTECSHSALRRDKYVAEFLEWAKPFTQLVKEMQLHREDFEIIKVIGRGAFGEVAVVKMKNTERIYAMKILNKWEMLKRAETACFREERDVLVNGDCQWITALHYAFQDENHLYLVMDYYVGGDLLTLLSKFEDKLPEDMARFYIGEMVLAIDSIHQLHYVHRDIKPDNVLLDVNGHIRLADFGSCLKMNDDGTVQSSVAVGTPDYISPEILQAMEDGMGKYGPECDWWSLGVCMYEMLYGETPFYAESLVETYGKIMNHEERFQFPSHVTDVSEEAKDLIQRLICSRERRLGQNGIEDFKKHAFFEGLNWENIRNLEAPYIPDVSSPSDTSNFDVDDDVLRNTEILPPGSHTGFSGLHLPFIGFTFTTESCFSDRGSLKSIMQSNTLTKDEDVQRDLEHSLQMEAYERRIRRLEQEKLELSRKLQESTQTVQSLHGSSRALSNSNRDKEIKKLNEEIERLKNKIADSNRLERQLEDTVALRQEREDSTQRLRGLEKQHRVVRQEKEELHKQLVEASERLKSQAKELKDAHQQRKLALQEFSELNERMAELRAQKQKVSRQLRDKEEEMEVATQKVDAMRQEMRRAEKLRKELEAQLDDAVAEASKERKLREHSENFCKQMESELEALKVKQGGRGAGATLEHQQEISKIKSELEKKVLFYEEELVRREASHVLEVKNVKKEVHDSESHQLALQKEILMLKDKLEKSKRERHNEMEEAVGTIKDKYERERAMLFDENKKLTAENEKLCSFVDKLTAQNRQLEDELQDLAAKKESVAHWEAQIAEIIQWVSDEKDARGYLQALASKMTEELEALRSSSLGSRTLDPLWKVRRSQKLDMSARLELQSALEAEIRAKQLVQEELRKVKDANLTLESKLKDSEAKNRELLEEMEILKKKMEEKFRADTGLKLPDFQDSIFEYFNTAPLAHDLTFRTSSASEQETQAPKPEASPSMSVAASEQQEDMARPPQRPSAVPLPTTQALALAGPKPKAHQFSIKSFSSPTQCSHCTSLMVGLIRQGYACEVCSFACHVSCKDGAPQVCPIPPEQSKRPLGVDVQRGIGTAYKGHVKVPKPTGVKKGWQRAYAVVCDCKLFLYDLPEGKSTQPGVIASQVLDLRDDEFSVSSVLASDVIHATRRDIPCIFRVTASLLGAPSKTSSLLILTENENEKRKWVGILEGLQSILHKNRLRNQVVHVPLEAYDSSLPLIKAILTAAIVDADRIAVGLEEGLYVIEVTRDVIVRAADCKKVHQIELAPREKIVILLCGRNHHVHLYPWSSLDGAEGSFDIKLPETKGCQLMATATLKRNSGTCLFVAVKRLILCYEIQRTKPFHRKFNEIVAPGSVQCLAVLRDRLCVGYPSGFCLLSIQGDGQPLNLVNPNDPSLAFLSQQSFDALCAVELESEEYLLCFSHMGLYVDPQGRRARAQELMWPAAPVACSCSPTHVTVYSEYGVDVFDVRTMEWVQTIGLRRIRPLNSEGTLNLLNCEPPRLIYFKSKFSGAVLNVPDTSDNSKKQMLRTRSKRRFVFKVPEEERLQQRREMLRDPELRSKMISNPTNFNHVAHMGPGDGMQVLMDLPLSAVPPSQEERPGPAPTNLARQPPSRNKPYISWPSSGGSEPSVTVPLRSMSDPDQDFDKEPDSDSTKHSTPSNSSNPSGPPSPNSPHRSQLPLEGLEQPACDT
UniProt P49841, sequence (whole entry, looked up): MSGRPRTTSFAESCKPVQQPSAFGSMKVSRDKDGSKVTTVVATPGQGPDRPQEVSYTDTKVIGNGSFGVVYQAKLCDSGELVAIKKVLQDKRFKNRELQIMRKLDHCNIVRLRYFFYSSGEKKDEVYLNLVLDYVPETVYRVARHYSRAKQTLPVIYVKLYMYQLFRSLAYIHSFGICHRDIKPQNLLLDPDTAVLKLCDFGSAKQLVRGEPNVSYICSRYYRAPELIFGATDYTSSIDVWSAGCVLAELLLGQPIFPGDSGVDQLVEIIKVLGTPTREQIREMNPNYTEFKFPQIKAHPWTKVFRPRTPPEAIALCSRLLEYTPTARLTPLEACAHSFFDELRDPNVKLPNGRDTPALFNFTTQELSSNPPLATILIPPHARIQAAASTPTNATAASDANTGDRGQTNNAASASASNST
UniProt Q00537, sequence (whole entry, looked up): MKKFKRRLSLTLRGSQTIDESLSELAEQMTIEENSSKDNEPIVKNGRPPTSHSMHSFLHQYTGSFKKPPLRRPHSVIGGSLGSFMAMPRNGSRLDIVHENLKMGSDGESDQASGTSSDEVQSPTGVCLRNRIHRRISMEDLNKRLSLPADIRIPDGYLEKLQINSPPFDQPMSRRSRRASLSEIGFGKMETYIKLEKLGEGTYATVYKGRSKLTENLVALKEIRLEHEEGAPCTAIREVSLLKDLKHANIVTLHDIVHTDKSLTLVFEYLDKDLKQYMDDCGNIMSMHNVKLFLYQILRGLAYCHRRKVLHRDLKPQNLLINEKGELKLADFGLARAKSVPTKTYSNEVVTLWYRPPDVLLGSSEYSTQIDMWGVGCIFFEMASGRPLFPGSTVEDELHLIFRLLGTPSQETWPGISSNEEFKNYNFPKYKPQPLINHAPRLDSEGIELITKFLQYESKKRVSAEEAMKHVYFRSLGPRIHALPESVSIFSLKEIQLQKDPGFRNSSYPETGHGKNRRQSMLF
UniProt Q02750, sequence (whole entry, looked up): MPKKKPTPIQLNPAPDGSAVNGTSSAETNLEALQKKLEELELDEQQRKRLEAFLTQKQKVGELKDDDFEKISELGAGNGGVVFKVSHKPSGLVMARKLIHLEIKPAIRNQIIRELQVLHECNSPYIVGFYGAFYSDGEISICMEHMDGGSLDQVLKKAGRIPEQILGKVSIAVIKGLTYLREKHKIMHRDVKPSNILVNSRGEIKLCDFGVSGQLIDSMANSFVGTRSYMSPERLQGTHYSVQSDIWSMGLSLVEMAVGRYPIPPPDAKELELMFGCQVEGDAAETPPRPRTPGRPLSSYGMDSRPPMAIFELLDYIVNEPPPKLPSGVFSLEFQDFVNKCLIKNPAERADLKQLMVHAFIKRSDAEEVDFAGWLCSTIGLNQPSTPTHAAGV
UniProt P11362, sequence (whole entry, looked up): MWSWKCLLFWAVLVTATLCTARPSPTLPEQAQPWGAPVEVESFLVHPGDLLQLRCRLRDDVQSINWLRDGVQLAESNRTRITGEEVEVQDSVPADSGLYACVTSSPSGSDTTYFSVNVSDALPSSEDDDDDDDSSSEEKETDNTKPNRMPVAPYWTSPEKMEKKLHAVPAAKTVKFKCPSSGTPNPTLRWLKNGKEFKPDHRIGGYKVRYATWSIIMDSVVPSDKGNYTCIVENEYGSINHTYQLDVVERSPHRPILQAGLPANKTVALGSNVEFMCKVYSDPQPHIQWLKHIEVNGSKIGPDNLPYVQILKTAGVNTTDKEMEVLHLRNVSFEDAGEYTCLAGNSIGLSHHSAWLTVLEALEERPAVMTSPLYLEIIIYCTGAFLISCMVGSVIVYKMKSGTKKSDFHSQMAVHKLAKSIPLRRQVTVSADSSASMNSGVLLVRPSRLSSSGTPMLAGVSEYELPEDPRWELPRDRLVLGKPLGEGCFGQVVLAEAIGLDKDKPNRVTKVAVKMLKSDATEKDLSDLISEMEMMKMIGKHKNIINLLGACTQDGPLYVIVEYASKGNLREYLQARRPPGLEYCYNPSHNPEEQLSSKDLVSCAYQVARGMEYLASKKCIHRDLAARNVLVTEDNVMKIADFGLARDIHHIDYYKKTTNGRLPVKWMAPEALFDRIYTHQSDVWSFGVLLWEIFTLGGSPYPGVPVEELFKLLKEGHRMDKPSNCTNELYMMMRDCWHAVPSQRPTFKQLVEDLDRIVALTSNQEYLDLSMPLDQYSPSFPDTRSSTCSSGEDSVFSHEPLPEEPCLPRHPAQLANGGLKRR
UniProt Q09013, sequence (whole entry, looked up): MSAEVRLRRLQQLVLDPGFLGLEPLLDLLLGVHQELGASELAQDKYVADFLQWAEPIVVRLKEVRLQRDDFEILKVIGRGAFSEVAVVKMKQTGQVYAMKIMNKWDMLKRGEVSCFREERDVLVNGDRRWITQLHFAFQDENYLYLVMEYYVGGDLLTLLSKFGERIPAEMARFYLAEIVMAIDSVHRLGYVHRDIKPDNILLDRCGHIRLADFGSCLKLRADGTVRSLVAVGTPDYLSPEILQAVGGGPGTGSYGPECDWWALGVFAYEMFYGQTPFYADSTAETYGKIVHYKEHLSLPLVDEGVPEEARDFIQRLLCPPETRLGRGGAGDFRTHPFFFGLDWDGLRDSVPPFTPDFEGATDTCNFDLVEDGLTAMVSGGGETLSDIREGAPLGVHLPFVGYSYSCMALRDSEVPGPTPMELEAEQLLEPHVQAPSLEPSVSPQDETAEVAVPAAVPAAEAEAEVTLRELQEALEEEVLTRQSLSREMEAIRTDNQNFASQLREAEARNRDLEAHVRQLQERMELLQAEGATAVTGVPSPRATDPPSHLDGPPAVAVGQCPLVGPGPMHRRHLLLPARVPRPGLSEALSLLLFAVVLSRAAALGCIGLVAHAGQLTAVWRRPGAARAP

Set 1
Target: MAP kinase-activated protein kinase 5 (MAPKAPK5, Homo sapiens, UniProt Q8IW41)
UniProt Q8IW41, sequence (whole entry, looked up): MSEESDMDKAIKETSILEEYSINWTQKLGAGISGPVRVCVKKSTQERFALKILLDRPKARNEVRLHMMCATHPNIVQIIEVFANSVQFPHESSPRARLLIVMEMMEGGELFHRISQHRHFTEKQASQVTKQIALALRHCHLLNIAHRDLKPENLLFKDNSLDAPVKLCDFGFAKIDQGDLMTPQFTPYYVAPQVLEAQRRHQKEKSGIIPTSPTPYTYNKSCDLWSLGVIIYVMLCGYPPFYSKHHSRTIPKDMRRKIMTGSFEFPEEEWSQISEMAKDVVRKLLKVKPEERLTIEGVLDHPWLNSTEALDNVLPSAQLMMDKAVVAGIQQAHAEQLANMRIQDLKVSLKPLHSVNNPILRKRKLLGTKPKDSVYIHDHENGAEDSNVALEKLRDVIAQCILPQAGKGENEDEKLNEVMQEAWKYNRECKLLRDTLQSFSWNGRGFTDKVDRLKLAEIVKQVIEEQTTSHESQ
Observed: enzyme activity
Mode: inhibitor
Concentration: 0.5 µM
Relative to: control
| Compound | remaining activity [%] |
| --- | --- |
| CC(C)[C@H](CO)Nc1nc(Nc2cc(N)cc(Cl)c2)c2ncn(C(C)C)c2n1 | 95.8 |
| N#CC(C#N)=C(N)/C(C#N)=C/c1ccc(O)cc1 | 94.2 |
| CNC(=O)c1cc(Oc2ccc(NC(=O)Nc3ccc(Cl)c(C(F)(F)F)c3)cc2)ccn1 | 95.8 |
| O=C1NC(=O)C(c2cn(CCCn3ccnc3)c3ccccc23)=C1Nc1ccccc1 | 96.4 |
| Cc1cccc(-c2[nH]c(C(C)(C)C)nc2-c2ccc3c(c2)OCO3)n1 | 96.1 |
| Cc1ccc(Nc2nccc(N(C)c3ccc4c(C)n(C)nc4c3)n2)cc1S(N)(=O)=O | 100 |
| COc1cc2ncnc(Nc3ccc(F)c(Cl)c3)c2cc1OCCCN1CCOCC1 | 92.7 |
| O=C(Nc1cccc(Nc2cc(Nc3cccc(C(F)(F)F)c3)ncn2)c1)C1CC1 | 101 |
| Cc1nc(-c2ccccc2)c(-c2ccncc2)o1 | 99.2 |
| O=C(O)c1ccc2c3c1cccc3c(=O)n1c3ccccc3nc21 | 96 |
| CN(C)c1ccc(C=C2C(=O)Nc3ccccc32)cc1 | 98.6 |
| Nc1ccc2ncnc(NCCc3ccc(Oc4ccccc4)cc3)c2c1 | 101 |
| O=S(=O)(c1cccc2cnccc12)N1CCCNCC1 | 72.6 |
| COc1cc2ncnc(Nc3ccc(Oc4ccccc4)cc3)c2cc1OC | 98 |
| COc1ccc(OC)c2c(=S)c3ccccc3[nH]c12 | 109 |

Set 2
Cell line: A-375
Concentration: 100 µM
Time: 18 h
| SMILES | viability [%] |
| --- | --- |
| O=C(CCCl)NCc1ccccc1 | 95.4 |
| COc1ccc(-c2cc(=S)ss2)cc1 | 89.2 |
| Nc1c2c(nc3ccccc13)CCCC2 | 55.4 |
| CC1(C)CCC(CN2CCN(c3ccc(C(=O)NS(=O)(=O)c4ccc(NCC5CCOCC5)c([N+](=O)[O-])c4)c(Oc4cnc5[nH]ccc5c4)c3)CC2)=C(c2ccc(Cl)cc2)C1 | 45.3 |
| C[C@@H](c1ncncc1F)[C@](O)(Cn1cncn1)c1ccc(F)cc1F | 90.4 |
| C=CC[N+]1([C@H]2C[C@H]3[C@@H]4CC[C@H]5C[C@H](O)[C@@H](N6CCOCC6)C[C@]5(C)[C@H]4CC[C@]3(C)[C@H]2OC(C)=O)CCCC1 | 74.5 |

Set 3
Host: human
Sample: microsomes or S9
Concentration: 2 µM
Time: 0.5 h
| Structure (SMILES) | remaining compound |
| --- | --- |
| CN1C(=O)C2(NCCc3c2[nH]c2ccccc32)c2ccccc21 (centres unmarked) | 55.8% |
| CN(C)CCCNC(=O)c1c(OCC2CC2)cc(=O)n2c1CCCCC2 | 96.6% |
| COc1ccc(-n2c3c(c4nc(OC)ccc42)CCC3)cc1 | 6.06% |
| Cc1ccc(-c2cc(C(=O)Nc3ccc4c(c3)N(C)C(=O)CO4)no2)cc1 | 27.7% |
| c1ccc2c(c1)oc1c(N3CCN(Cc4ccc5c(c4)OCO5)CC3)ncnc12 | 76.1% |
| CCn1nccc1C(C)NS(=O)(=O)c1ccc(Br)s1 (centres unmarked) | 34.8% |

Set 4
SMILES: FC(F)(F)c1ccc2c(c1)nc(-c1cccnc1)n2C1CC1
Observed: cell-free assay
Method: competition with immobilised ligand
Concentration: 1 µM
| target | remaining binding |
| --- | --- |
| Epidermal growth factor receptor (EGFR, Homo sapiens, UniProt P00533, del747-750/T751S) | 100% |
| Serine/threonine-protein kinase MRCK beta (CDC42BPB, Homo sapiens, UniProt Q9Y5S2) | 100% |
| Glycogen synthase kinase-3 beta (GSK3B, Homo sapiens, UniProt P49841) | 100% |
| Fibroblast growth factor receptor 1 (FGFR1, Homo sapiens, UniProt P11362) | 100% |
| Dual specificity mitogen-activated protein kinase kinase 1 (MAP2K1, Homo sapiens, UniProt Q02750) | 94% |
| Cyclin-dependent kinase 17 (CDK17, Homo sapiens, UniProt Q00537) | 100% |
| Myotonin-protein kinase (DMPK, Homo sapiens, UniProt Q09013) | 92% |
| Mitogen-activated protein kinase kinase kinase 6 (MAP3K6, Homo sapiens, UniProt O95382) | 100% |

Repeated from above (set 1):
| Compound | remaining activity [%] |
| --- | --- |
| O=S(=O)(c1cccc2cnccc12)N1CCCNCC1 | 72.6 |
| O=C(O)c1ccc2c3c1cccc3c(=O)n1c3ccccc3nc21 | 96 |
| Cc1ccc(Nc2nccc(N(C)c3ccc4c(C)n(C)nc4c3)n2)cc1S(N)(=O)=O | 100 |
